Published values of several laboratories.
Numbered parts are unrelated; each lists some results of a single study. Changes are numbered by the printed parent chain.

Series 1
Target: JUND, bZIP domain (human)
Method: DHFR protein complementation
Matrix: yeast
Notes: single substitutions, most at no-binding floor
Baseline: wild-type JUN-FOS pair
Direction: higher = stronger binding
Starting sequence: JUN, bZIP domain (human); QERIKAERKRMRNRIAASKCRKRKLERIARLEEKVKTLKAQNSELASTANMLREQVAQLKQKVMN; partner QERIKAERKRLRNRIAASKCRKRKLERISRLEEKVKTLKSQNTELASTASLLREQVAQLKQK
With `K39Q` the binding fitness was -0.572 natural log.
For `V35Y`, the binding fitness was -0.914 natural log.
`I28T` gave a binding fitness of -1.16 natural log.
The binding fitness of `M51C` is reported as -0.841 natural log.
`K36V` has a binding fitness of -0.95 natural log.
`V56A` gave a binding fitness of -1.1 natural log.
For `K36I`, the binding fitness was -0.982 natural log.
With `Q55K` the binding fitness was -0.917 natural log.

Series 2
Target: Phosphate system positive regulatory protein PHO4, full length, GST-tagged (PHO4, Saccharomyces cerevisiae, UniProt P07270, residues 1-312)
Method: competition protein-binding microarray
Molecule type: double-stranded DNA, one strand shown
Matrix: in vitro
Concentration: 2 µM
Notes: whole 60-bp probe, lowest competitor level
Added: Cbf1 competitor, 0.05 µM
Direction: higher = stronger binding
Construct (chain): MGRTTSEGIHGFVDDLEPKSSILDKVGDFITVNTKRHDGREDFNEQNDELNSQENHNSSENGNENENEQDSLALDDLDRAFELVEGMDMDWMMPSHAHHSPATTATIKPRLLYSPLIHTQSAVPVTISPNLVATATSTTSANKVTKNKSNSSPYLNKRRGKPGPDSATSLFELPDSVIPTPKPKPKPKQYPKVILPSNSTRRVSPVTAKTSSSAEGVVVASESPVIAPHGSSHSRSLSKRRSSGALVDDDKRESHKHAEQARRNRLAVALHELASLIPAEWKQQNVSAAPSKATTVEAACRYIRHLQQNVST
With `AGAAATGTCCCGGAAAACGTGGGTATGCGGTGAGGAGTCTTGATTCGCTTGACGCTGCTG` the fluorescence intensity was 15000 a.u.
`CTTCTCGCGGTGGTGCCCGTGGTGATTCCAGAGGCGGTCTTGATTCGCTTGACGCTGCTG` gave a fluorescence intensity of 8520 a.u.
With `ATGGGCTCGAAAAATCTCGTGCCAGTGTAGACTCCCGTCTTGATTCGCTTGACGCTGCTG` the fluorescence intensity was 8800 a.u.
`CGGGGTTAAGTTTGGGCCGTGGGTGGCTTGCAGCAGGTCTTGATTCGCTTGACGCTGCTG` has a fluorescence intensity of 5590 a.u.
With `CGGGGTTAAGTTTGACACGTGTTTTGCTTGCAGCAGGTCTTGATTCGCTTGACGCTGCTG` the fluorescence intensity was 17300 a.u.
`GATAGACGAGAAGGACACATGGAGGATTTGACAGGCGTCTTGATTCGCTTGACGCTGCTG` has a fluorescence intensity of 8050 a.u.
For `CAGCCGCTCGTCACCCGCGTGATGCTGTTTCTGGCGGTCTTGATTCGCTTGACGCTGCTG`, the fluorescence intensity was 7210 a.u.
`CTAAATGGGTAAAAACTCGTGTTTTAGGAAAAAAAAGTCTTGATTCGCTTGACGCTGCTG` gave a fluorescence intensity of 8090 a.u.

Series 3
Target: PABPC1L2, full length, GST fusion (mouse, UniProt A0ABA7IW68)
Method: RNAcompete
Molecule type: RNA
Matrix: in vitro
Concentration: 20 nM
Notes: 7-mer, probes averaged, single round
Baseline: mean of 7-mers
Direction: higher = stronger binding
Residues (chain): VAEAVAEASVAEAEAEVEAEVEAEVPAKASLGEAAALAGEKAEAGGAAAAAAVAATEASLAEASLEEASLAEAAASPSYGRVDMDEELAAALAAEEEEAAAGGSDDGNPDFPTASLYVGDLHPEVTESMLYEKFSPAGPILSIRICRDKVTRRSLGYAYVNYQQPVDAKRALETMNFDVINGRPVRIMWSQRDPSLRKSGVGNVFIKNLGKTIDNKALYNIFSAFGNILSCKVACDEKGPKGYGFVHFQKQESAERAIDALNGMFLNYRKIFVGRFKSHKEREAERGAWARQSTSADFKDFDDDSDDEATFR
`AUCCCAU` gave a 7-mer Z-score of -0.351.
The 7-mer Z-score of `CCCCACC` is reported as -0.429.
For `ACUCUCG`, the 7-mer Z-score was -0.34.
`CUCAAAG` has a 7-mer Z-score of -0.0591.
`CCGACAC` gave a 7-mer Z-score of -0.222.
With `CCCGAGU` the 7-mer Z-score was -0.182.
`CCGAUCG` has a 7-mer Z-score of -0.291.
`CCCACUU` gave a 7-mer Z-score of -0.155.

Other studies, line by line
Starting sequence: viral docking peptide; YKVKRRLVFGADD; partner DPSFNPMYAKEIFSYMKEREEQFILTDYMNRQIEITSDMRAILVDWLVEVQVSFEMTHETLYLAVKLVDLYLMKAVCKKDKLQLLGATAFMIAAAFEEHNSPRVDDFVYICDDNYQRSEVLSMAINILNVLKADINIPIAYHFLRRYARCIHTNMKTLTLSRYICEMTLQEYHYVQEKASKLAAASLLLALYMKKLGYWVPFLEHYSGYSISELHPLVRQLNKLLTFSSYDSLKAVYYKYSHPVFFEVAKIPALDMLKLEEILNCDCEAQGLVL
`YKVMRRLVFGADD [K4M]` — result for “normalised enrichment score”: -0.0905 (CCNB3, cyclin fold, Cln2 fusion (human); yeast growth competition, sequencing; yeast; strong parent motif; baseline: not given, higher = stronger binding).

A few entries again (series 2):
With `CGGGGTTAAGTTTGACACGTGTTTTGCTTGCAGCAGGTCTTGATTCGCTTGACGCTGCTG` the fluorescence intensity was 17300 a.u.
`GATAGACGAGAAGGACACATGGAGGATTTGACAGGCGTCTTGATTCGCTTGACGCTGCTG` has a fluorescence intensity of 8050 a.u.
